Experimental data pooled from the literature.
Numbered parts are unrelated; each lists some results of a single study.
Chain of UniProt P08069 (whole entry, looked up): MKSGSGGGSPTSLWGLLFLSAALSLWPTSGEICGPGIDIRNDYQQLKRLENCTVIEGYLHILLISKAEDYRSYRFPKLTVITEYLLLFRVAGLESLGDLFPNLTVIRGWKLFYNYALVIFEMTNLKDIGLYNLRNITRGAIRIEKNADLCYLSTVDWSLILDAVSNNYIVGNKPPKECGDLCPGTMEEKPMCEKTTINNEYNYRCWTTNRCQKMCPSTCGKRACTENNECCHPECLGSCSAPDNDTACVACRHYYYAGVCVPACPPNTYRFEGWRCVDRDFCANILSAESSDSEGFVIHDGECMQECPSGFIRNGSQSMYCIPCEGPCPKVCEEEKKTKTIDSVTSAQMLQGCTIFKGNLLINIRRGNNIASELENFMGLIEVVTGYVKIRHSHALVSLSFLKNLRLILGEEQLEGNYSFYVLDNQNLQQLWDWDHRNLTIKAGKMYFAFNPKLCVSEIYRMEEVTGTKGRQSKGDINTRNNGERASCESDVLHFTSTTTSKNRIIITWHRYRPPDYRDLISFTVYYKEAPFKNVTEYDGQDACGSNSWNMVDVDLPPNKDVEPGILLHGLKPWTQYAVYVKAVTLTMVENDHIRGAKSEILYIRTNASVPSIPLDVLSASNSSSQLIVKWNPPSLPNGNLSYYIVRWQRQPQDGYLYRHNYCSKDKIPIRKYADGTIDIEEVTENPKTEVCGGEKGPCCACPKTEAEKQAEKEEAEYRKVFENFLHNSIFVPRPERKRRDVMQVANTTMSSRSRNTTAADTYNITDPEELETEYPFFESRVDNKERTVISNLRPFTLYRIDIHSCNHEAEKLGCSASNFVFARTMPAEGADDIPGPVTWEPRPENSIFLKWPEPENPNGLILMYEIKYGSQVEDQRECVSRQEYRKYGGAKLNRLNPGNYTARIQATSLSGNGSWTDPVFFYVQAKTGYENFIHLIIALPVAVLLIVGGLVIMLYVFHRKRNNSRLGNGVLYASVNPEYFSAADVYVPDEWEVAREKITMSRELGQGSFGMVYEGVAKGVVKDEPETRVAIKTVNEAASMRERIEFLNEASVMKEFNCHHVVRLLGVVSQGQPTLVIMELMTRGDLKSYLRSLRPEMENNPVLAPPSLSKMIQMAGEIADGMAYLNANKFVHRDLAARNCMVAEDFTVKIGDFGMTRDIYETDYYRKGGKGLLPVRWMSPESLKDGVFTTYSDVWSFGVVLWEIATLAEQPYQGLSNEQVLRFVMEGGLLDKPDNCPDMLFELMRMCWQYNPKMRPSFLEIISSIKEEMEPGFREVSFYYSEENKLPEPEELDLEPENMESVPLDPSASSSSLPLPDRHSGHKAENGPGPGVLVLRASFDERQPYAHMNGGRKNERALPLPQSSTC
Chain of UniProt P51813 (whole entry, looked up): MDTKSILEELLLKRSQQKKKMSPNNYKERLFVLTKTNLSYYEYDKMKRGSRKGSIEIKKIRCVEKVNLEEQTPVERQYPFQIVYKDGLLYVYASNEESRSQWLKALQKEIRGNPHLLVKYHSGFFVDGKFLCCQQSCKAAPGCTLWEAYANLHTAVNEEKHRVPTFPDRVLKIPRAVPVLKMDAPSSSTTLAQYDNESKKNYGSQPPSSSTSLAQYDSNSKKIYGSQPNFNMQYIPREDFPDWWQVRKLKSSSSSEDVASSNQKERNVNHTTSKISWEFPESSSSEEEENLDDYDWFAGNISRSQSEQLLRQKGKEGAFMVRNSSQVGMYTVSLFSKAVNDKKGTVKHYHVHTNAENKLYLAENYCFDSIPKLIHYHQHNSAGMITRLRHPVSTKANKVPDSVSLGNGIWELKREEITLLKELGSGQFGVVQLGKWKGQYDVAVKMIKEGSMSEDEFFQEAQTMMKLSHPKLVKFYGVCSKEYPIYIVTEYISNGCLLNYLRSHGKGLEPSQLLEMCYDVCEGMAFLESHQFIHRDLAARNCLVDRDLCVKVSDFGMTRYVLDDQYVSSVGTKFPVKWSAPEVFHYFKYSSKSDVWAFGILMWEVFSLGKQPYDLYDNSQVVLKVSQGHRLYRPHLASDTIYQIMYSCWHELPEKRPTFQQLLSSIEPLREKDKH
Chain of UniProt Q9H1R3 (whole entry, looked up): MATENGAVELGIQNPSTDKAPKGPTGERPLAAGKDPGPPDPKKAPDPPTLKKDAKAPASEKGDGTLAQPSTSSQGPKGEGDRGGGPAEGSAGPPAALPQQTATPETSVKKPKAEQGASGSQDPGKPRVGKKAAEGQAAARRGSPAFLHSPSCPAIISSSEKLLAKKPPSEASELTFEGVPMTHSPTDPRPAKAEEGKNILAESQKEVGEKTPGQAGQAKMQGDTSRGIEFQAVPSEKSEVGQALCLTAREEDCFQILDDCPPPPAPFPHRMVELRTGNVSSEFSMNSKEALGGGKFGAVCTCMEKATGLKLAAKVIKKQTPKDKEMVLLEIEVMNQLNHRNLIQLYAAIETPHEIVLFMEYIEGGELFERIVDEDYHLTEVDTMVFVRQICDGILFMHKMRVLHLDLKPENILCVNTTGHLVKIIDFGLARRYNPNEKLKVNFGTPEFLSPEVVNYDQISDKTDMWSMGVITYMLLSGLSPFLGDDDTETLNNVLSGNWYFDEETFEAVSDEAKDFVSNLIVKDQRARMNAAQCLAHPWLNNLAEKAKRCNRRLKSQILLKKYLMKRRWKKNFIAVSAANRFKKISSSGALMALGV
Chain of UniProt Q9NQU5 (whole entry, looked up): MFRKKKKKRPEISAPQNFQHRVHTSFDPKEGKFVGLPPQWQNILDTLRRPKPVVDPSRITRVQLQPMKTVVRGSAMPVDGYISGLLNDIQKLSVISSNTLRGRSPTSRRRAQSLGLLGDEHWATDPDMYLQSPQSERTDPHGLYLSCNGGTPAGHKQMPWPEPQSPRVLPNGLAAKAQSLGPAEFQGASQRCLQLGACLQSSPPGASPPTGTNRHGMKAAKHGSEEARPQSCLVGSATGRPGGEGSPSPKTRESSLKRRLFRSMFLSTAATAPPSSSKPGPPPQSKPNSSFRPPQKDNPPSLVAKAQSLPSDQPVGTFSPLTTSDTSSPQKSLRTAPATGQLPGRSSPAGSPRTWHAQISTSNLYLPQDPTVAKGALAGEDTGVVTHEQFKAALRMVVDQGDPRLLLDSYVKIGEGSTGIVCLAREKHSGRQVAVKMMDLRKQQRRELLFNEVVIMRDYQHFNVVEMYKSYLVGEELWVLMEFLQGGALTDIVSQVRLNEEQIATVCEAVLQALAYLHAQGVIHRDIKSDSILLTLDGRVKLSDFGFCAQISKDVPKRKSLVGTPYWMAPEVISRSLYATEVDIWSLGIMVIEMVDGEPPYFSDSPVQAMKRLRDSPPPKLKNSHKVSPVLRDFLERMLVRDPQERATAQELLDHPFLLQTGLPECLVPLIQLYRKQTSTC

Block 1
SMILES: COc1cc(-c2nc3ccc(C(=O)NCCCN(C)C)cc3n2C2CCC2)cc(OC)c1OC
Method: NanoBRET
Concentration: 1 µM
target	target occupancy [%]
MAP4K3 (Homo sapiens, UniProt Q8IVH8)	-1.54
CAMK2A (Homo sapiens, UniProt Q9UQM7)	1.61
PAK6 (Homo sapiens, UniProt Q9NQU5)	3.27
PTK6 (Homo sapiens, UniProt Q13882)	0.97
FGFR4 (Homo sapiens, UniProt P22455)	-1.83
EPHB4 (Homo sapiens, UniProt P54760)	-3.12
SRMS (Homo sapiens, UniProt Q9H3Y6)	-2.06
ULK1 (Homo sapiens, UniProt O75385)	-0.69
IGF1R (Homo sapiens, UniProt P08069)	-0.53
BMX (Homo sapiens, UniProt P51813)	-2.59
MAST4 (Homo sapiens, UniProt O15021)	-1.21
NLK (Homo sapiens, UniProt Q9UBE8)	-1.06
MYLK2 (Homo sapiens, UniProt Q9H1R3)	-3.39
MAP3K4 (Homo sapiens, UniProt Q9Y6R4)	1.22
PRKAA2 (Homo sapiens, UniProt P54646)	1.09
TYRO3 (Homo sapiens, UniProt Q06418)	3.84
PAK4 (Homo sapiens, UniProt O96013)	1.51

Block 2
SMILES: Cc1ccc(O)c(C)c1-c1cnc2[nH]c(-c3cnc(N4CCC(CN5CCN(c6ccc7c(c6)CN(C6CCC(=O)NC6=O)C7=O)CC5)CC4)nc3)cc2c1C#N (stereo not drawn)
Target: Membrane-associated tyrosine- and threonine-specific cdc2-inhibitory kinase (PKMYT1, Homo sapiens, UniProt Q99640)
Residues (Q99640 1-499): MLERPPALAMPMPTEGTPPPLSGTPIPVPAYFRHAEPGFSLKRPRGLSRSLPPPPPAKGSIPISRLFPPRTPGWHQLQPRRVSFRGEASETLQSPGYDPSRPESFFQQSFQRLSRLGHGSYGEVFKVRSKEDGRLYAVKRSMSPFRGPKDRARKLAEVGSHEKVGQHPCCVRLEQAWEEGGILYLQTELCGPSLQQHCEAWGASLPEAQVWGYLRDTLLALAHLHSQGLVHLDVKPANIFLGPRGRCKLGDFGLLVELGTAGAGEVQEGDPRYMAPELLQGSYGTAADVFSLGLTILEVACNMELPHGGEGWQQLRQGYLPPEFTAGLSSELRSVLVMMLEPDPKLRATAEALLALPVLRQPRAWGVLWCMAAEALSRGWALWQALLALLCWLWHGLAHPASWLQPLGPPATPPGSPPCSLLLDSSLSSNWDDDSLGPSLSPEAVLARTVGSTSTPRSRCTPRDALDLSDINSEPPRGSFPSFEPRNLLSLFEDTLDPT
test	setting	inhibition
	0.00046 µM	8.74%
cell-free assay, inhibitor, TR-FRET	1.37 nM	25.3%
	0.03704 µM	98.9%
cell-free assay, inhibitor, TR-FRET	51 pM	1.24%
	5.1e-05 µM	-2.65%
	0.3333 µM	100%
cell-free assay, inhibitor, TR-FRET	4.12 nM	63%
	0.1111 µM	101%
cell-free assay, inhibitor, TR-FRET	460 pM	8.51%
	0.01235 µM	93.2%
cell-free assay, inhibitor, TR-FRET	0.1111 µM	100%
	1 µM	100%

Block 3
Compound: CCC1(c2cccc(-c3cn(C)nc3C)c2)C2=C(Nc3n[nH]cc31)C(F)C(C)(C)CC2=O (single isomer, unassigned)
Concentration: 1 µM
target	test	scale	remaining binding [%]
CASK (Homo sapiens, UniProt O14936)	kinase binding, KINOMEscan	baseline: DMSO control	100
CDC42BPA (Homo sapiens, UniProt Q5VT25)	binding, competition with immobilised ligand		100
AKT1 (Homo sapiens, UniProt P31749)	binding, competition with immobilised ligand		100
CDK16 (Homo sapiens, UniProt Q00536)	binding, competition with immobilised ligand		100
FLT3 ITD/D835V, human	KINOMEscan		100
SIK3 (Homo sapiens, UniProt Q9Y2K2)	kinase binding, KINOMEscan	baseline: DMSO control	100
BMP2K (Homo sapiens, UniProt Q9NSY1)	binding, competition with immobilised ligand		75
MYLK3 (Homo sapiens, UniProt Q32MK0)	kinase binding, KINOMEscan	baseline: DMSO control	100
EGFR (Homo sapiens, UniProt P00533, del747-752/P753S)	binding, competition with immobilised ligand		64
LYN (Homo sapiens, UniProt P07948)	kinase binding, KINOMEscan	baseline: DMSO control	100
TGFBR1 (Homo sapiens, UniProt P36897)	binding, competition with immobilised ligand		100
DCLK1 (Homo sapiens, UniProt O15075)	binding, competition with immobilised ligand		88
Aurora kinase A (AURKA, Homo sapiens, UniProt O14965)	binding, competition with immobilised ligand		100
Ribosomal protein S6 kinase alpha-4, N-terminal kinase domain (RPS6KA4, Homo sapiens, UniProt O75676)	kinase binding, KINOMEscan	baseline: DMSO control	93

Block 4
SMILES: C[C@@H]1CN(c2ccc(-c3cc(C(=O)NCCOCCOCCOCCOCCNC(=O)/C=C/c4[nH]cc(C(=O)N[C@@H](CC(N)=O)c5ccc(F)c(Cl)c5)c4-c4ccc(Cl)cc4F)ccc3F)cc2NC(=O)c2c[nH]c(=O)cc2C(F)(F)F)C[C@H](C)N1C
Read-out: thermal unfolding
Method: differential scanning fluorimetry
Concentration: 5.5 µM
Direction: higher = more unfolded
DCAF1: DDB1- and CUL4-associated factor 1 (DCAF1, Homo sapiens, UniProt Q9Y4B6)
Chain of UniProt Q9Y4B6 (whole entry, looked up): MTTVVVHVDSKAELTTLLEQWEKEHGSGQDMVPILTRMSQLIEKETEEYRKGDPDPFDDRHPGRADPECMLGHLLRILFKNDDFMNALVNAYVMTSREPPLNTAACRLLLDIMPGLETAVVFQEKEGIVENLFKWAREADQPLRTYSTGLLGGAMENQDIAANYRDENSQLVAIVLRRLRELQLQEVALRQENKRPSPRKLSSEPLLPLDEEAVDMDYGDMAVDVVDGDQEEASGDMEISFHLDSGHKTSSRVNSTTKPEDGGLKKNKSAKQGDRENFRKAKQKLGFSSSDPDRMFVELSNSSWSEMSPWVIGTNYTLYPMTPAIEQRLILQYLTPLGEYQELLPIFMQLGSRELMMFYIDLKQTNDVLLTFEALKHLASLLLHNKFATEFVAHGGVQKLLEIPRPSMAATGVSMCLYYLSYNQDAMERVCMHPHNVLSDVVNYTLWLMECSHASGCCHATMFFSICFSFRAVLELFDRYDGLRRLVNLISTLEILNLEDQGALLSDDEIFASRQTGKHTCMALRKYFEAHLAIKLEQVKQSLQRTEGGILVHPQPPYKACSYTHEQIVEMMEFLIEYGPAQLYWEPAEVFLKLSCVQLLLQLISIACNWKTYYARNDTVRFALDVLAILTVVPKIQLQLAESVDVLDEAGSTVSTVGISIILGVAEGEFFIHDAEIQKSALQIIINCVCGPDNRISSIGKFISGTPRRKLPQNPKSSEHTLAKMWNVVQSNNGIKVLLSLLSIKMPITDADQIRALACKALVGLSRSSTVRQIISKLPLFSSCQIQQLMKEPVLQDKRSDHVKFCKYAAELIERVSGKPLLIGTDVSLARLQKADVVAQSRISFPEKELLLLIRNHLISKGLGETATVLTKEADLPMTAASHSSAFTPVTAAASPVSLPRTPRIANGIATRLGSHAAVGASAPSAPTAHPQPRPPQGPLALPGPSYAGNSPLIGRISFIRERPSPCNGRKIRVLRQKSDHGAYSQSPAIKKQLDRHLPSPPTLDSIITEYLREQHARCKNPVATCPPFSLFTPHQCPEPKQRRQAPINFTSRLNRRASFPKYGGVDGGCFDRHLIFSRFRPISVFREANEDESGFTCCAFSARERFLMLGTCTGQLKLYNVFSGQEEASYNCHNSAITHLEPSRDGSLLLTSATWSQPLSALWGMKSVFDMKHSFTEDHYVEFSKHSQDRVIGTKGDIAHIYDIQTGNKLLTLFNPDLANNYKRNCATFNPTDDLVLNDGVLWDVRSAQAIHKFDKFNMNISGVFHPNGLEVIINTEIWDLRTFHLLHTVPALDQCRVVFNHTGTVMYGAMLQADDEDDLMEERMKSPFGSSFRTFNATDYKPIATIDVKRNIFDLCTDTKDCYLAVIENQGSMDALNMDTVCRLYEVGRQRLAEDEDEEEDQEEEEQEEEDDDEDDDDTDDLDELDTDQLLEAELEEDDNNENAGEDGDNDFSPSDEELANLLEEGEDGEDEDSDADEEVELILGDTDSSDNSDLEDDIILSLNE
target	setting	SYPRO Orange fluorescence
DCAF1	56.21 °C	24600 a.u.
DCAF1	41.4 °C	12000 a.u.
DCAF1	60.81 °C	44600 a.u.
DCAF1	34.4 °C	10000 a.u.
DCAF1	59.21 °C	36900 a.u.
DCAF1	60.61 °C	43600 a.u.
WDR5 (Homo sapiens, UniProt P61964)	70.21 °C	16400 a.u.
DCAF1	70.41 °C	55400 a.u.
